Published values from different studies.
A part holds a random share of what one study measured. Several values in a cell are separate wells, animals, samples, runs or records.
Sequence of UniProt O96017 (whole entry, looked up): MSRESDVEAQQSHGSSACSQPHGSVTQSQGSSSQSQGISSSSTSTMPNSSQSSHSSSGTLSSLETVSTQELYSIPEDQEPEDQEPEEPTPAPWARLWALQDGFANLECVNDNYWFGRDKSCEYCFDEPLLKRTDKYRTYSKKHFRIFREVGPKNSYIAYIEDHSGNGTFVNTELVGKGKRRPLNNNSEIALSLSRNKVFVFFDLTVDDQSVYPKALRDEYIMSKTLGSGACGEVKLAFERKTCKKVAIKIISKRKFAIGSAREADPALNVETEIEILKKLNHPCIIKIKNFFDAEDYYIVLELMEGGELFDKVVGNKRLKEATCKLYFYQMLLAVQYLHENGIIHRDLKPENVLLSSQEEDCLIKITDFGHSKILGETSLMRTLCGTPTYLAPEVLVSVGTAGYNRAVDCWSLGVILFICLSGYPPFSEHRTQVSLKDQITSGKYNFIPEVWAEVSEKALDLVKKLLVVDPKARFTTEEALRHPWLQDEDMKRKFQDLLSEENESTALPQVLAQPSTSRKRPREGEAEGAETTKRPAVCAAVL
Sequence of UniProt Q9Y2H9 (whole entry, looked up): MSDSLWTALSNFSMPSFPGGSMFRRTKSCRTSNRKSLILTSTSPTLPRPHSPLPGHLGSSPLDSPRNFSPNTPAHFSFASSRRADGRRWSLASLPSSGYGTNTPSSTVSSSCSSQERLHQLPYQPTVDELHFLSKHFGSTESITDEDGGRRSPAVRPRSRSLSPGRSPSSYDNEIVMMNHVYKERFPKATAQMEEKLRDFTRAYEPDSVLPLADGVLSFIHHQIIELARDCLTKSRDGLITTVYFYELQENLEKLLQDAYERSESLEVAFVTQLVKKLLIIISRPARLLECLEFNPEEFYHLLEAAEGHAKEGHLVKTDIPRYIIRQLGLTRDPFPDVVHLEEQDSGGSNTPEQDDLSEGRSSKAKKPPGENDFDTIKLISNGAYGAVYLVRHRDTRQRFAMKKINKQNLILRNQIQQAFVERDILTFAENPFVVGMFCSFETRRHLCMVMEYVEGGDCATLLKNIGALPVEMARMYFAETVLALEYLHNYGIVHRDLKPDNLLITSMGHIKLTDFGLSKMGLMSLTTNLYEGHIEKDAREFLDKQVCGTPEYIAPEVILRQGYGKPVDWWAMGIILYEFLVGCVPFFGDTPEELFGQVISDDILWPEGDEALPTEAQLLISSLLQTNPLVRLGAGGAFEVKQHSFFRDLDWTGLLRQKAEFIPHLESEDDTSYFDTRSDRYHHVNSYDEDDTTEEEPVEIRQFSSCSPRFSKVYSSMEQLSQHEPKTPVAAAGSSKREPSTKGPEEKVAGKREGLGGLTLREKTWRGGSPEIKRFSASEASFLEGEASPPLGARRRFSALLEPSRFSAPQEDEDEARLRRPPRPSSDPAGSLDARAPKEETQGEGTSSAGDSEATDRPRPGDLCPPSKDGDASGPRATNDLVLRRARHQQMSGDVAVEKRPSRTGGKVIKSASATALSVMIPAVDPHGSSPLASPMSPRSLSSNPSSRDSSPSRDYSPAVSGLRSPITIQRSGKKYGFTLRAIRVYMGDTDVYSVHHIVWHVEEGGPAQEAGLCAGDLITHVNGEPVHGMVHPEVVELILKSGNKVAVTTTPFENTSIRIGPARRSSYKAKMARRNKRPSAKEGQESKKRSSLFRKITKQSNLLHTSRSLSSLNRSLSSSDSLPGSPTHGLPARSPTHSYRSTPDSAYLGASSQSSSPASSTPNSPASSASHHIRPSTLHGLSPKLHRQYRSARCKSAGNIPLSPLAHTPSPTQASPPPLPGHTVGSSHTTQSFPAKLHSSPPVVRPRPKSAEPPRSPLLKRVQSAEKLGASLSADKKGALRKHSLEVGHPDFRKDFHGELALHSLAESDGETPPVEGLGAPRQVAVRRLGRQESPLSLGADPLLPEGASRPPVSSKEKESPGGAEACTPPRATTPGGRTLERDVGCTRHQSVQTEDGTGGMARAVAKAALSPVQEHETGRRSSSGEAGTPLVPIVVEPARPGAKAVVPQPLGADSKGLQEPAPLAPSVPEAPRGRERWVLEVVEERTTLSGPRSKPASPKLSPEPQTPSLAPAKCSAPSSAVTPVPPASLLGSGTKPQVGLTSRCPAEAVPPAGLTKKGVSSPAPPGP
Sequence of UniProt Q96Q40 (whole entry, looked up): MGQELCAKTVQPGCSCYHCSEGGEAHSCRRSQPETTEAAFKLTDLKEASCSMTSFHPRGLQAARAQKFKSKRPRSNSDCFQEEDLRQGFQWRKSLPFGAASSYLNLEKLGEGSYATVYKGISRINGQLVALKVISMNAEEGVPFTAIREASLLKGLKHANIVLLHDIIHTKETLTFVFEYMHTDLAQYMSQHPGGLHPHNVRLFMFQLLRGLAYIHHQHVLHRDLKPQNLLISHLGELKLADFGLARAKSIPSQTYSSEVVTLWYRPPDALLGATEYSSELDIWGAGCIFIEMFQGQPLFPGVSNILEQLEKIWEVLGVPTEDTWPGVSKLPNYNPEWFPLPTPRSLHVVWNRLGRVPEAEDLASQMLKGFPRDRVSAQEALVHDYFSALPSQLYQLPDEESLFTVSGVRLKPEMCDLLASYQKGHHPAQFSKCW
Sequence of UniProt Q00535 (whole entry, looked up): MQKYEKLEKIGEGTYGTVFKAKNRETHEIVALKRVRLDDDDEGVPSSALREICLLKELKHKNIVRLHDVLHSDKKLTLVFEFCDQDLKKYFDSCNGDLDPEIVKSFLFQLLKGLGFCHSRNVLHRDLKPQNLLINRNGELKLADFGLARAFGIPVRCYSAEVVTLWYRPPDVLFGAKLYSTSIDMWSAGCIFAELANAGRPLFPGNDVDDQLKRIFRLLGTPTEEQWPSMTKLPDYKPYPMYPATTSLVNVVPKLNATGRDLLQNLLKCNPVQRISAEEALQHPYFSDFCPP

Block 1
Structure (SMILES): COc1cc(C(=O)OCCCN2CCCN(CCCOC(=O)c3cc(OC)c(OC)c(OCc4ccc([N+](=O)[O-])cc4)c3)CC2)cc(OC)c1OC
Method: electrocardiography
Quantity: heart rate
mouse; intraperitoneal, 30 mg/kg, 30 min: 635 beats/min and 610 beats/min and 557 beats/min
mouse; intravenous, 30 mg/kg, baseline: 480 beats/min and 584 beats/min and 588 beats/min and 529 beats/min and 570 beats/min and 580 beats/min
mice; intraperitoneal, 10 mg/kg, 60 min: 555 beats/min and 570 beats/min and 624 beats/min
mouse; intraperitoneal, 10 mg/kg, 10 min: 560 beats/min and 589 beats/min and 630 beats/min
mice; intravenous, 30 mg/kg, 10 min: 370 beats/min and 459 beats/min and 590 beats/min and 397 beats/min and 587 beats/min and 441 beats/min
mice; intraperitoneal, 30 mg/kg, 60 min: 550 beats/min and 600 beats/min and 620 beats/min

Block 2
SMILES: CCN1/C(=C/C=C2\CCCC(/C=C/C3=[N+](CC)c4ccccc4C3(C)C)=C2NCCCCCCCCN2CCC(Nc3nc4ccccc4n3Cc3ccc(F)cc3)CC2)C(C)(C)c2ccccc21
Cell line: U-87 MG
Tested at: concentration not given
Baseline: DMSO
Quantity: log2 fold change
refers to: SPAG5 mRNA: -1.67
refers to: ERN1 mRNA: 2.38
refers to: SCIN mRNA: -2.61
refers to: LIN9 mRNA: -1.14
refers to: TBC1D15 mRNA: 0.806
refers to: PPP2R2B mRNA: -1.55
refers to: RAB43 mRNA: 1.81
refers to: LAPTM4B mRNA: -0.83

Block 3
Compound: Cc1c(F)cc2[nH]ncc2c1-c1c(C2CC2)cc2c(N3C[C@@H]4C[C@H]3CN4)nc(OC3CCOCC3)nc2c1OCc1ccccc1
Observed: KRAS-RAF interaction
Action: inhibitor
Method: TR-FRET
Added: SOS-mediated nucleotide exchange
Quantity: inhibition
KRAS with RAF: GTPase KRas, with RAF (KRAS, Homo sapiens, UniProt P01116)
KRAS G12D with RAF: GTPase KRas, with RAF (KRAS, Homo sapiens, UniProt P01116, G12D)
KRAS with RAF; 3 µM: 2.06% and 0.012%
KRAS with RAF; 10 nM: -4.57% and -5%
KRAS G12D with RAF; 1 µM: 3.71% and 2.21%
KRAS with RAF; 30 nM: -4.44% and -4.84%
KRAS G12D with RAF; 10 µM: 80.4% and 88.1%
KRAS G12D with RAF; 300 nM: -5.92% and -3.1%
KRAS with RAF; 100 nM: -4.49% and -3.73%

Block 4
Compound: O=C(Nc1ccccc1)Nc1cccc(Oc2ccc3nccn3n2)c1
Tested at: 1 µM
Quantity: remaining binding
RET (Homo sapiens, UniProt P07949, V804L); binding: 87%
CDK15 (Homo sapiens, UniProt Q96Q40); binding, competition with immobilised ligand: 43%
MARK2 (Homo sapiens, UniProt Q7KZI7); binding: 61%
SRPK1 (Homo sapiens, UniProt Q96SB4); binding: 100%
BMP2K (Homo sapiens, UniProt Q9NSY1); binding: 100%
MAP3K3 (Homo sapiens, UniProt Q99759); binding, competition with immobilised ligand: 100%
TAOK3 (Homo sapiens, UniProt Q9H2K8); cell-free binding: 100%
EPHA5 (Homo sapiens, UniProt P54756); binding, competition with immobilised ligand: 100%
CRK2 (Plasmodium falciparum, UniProt P61075); binding: 77%
TNK1 (Homo sapiens, UniProt Q13470); binding, competition with immobilised ligand: 77%
PIK3CA (Homo sapiens, UniProt P42336); binding: 100%

Block 5
SMILES: CC[C@@]1(c2cccc(-c3c(F)cncc3OC)c2)C2=C(Nc3n[nH]cc31)[C@H](F)C(C)(C)CC2=O (single isomer, unassigned)
Tested at: 1 µM
Quantity: remaining binding
MAP3K4 (Homo sapiens, UniProt Q9Y6R4); kinase binding, KINOMEscan; baseline: DMSO control: 90%
CDK5 (Homo sapiens, UniProt Q00535); kinase binding, KINOMEscan; baseline: DMSO control: 70%
Ribosomal protein S6 kinase alpha-5, N-terminal kinase domain (RPS6KA5, Homo sapiens, UniProt O75582); kinase binding, KINOMEscan; baseline: DMSO control: 100%
PLK4 (Homo sapiens, UniProt O00444); binding, competition with immobilised ligand: 74%
MAST1 (Homo sapiens, UniProt Q9Y2H9); binding, competition with immobilised ligand: 100%
CHEK2 (Homo sapiens, UniProt O96017); kinase binding, KINOMEscan; baseline: DMSO control: 88%
MAPK15 (Homo sapiens, UniProt Q8TD08); kinase binding, KINOMEscan; baseline: DMSO control: 36%
MARK3 (Homo sapiens, UniProt P27448); kinase binding, KINOMEscan; baseline: DMSO control: 96%
PDGFRB (Homo sapiens, UniProt P09619); kinase binding, KINOMEscan; baseline: DMSO control: 100%
Non-receptor tyrosine-protein kinase TYK2, JH2 pseudokinase domain (TYK2, Homo sapiens, UniProt P29597); kinase binding, KINOMEscan; baseline: DMSO control: 45%
Tyrosine-protein kinase ABL1, phosphorylated (ABL1, Homo sapiens, UniProt P00519); binding, competition with immobilised ligand: 95%
ACVR2B (Homo sapiens, UniProt Q13705); binding, competition with immobilised ligand: 80%
MAP3K1 (Homo sapiens, UniProt Q13233); kinase binding, KINOMEscan; baseline: DMSO control: 62%

Block 6
Compound: C[C@@H]1CN(c2ccc(-c3cc(C(=O)NCCOCCOCCOCCOCCOCCOCCNC(=O)/C=C/c4[nH]cc(C(=O)N[C@@H](CC(N)=O)c5ccc(F)c(Cl)c5)c4-c4ccc(Cl)cc4F)ccc3F)cc2NC(=O)c2ccc(F)cc2C(F)(F)F)C[C@H](C)N1C
Observed: thermal unfolding
Method: differential scanning fluorimetry
Tested at: 5.5 µM
Direction: higher = more unfolded
Quantity: SYPRO Orange fluorescence
WDR5: WD repeat-containing protein 5 (WDR5, Homo sapiens, UniProt P61964)
DCAF1: DDB1- and CUL4-associated factor 1 (DCAF1, Homo sapiens, UniProt Q9Y4B6)
Sequence of UniProt Q9Y4B6 (whole entry, looked up): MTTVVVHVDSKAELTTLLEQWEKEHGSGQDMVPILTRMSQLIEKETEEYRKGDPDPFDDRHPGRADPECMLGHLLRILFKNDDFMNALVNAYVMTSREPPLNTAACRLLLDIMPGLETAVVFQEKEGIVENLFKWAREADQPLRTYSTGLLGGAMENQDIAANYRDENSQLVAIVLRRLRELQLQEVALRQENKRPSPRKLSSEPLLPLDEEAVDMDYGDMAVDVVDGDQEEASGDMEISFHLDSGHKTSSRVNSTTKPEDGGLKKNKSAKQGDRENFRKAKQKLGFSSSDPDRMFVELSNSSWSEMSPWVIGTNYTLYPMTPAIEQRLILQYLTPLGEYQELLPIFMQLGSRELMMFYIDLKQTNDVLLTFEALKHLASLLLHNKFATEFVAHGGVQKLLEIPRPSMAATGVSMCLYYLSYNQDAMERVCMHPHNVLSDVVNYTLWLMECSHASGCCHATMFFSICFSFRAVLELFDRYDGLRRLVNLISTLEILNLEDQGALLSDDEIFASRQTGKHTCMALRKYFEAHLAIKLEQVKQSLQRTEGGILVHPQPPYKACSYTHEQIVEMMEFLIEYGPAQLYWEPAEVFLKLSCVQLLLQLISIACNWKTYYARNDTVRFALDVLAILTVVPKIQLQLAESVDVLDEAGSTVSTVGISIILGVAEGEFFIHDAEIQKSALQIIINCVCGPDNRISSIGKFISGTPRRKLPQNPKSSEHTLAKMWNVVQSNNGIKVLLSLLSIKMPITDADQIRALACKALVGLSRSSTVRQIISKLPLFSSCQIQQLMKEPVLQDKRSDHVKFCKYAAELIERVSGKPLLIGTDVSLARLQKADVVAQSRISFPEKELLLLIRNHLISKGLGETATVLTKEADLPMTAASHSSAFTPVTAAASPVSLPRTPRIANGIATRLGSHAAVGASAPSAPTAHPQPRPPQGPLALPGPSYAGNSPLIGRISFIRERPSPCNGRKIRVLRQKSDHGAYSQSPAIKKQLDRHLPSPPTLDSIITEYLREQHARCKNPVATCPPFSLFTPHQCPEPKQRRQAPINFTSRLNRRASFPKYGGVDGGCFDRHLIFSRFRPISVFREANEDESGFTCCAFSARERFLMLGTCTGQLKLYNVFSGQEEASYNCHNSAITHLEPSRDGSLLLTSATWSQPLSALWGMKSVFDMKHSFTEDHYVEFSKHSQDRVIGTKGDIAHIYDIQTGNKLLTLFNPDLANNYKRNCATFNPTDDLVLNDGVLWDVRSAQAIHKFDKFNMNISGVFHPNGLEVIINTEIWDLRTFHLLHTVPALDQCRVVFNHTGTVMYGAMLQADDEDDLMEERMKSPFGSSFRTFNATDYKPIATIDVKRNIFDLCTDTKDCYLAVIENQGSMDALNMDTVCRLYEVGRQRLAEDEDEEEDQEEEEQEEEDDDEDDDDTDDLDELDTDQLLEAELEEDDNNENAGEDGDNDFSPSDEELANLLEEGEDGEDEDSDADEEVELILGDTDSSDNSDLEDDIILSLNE
WDR5; 40.6 °C: 14200 a.u.
WDR5; 28.2 °C: 13500 a.u.
DCAF1; 30.8 °C: 8640 a.u.
DCAF1; 26.4 °C: 7450 a.u.
DCAF1; 51.8 °C: 20100 a.u.
DCAF1; 79.61 °C: 40200 a.u.
WDR5; 52.01 °C: 16700 a.u.
WDR5; 69.81 °C: 26600 a.u.
WDR5; 41.4 °C: 14300 a.u.
DCAF1; 28.6 °C: 8050 a.u.
WDR5; 79.81 °C: 64400 a.u.

Block 7
Target: Sodium-dependent neutral amino acid transporter B(0)AT1 (SLC6A19, Homo sapiens, UniProt Q695T7)
Sequence of UniProt Q695T7 (whole entry, looked up): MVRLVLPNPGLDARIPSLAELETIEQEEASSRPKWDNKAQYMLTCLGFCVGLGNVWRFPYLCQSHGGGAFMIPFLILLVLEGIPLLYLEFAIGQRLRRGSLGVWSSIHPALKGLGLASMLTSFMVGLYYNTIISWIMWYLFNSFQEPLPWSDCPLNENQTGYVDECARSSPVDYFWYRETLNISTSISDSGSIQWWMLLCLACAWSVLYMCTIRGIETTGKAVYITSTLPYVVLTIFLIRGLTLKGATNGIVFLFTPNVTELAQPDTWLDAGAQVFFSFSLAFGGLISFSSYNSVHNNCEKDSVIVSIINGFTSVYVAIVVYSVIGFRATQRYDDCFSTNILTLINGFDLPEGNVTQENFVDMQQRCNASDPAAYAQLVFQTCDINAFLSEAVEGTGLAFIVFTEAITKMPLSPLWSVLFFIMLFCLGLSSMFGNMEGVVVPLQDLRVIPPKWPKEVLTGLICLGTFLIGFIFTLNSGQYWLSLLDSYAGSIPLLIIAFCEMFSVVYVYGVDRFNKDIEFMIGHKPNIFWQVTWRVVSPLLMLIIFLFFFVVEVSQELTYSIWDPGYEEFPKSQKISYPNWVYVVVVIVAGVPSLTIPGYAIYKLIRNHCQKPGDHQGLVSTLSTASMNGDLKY
Action: inhibitor
Method: L-[14C]leucine uptake
Cells: CHO-BC cells
Tested at: 0.03 µM
Time: 6 min
Temperature: 37 °C
Setting: unit not given
Added: GPNA 3 mM, JPH203 3 µM
Baseline: uninhibited cells
Quantity: remaining transport activity
CCNC(=O)COc1ccc(I)c(C)c1: 0.92
CCCNC(=O)COc1ccc(I)c(C)c1: 0.77
Cc1cc(NCC(=O)NC(C)C)ccc1Br: 0.914

Block 8
Organism: Arabidopsis thaliana
Strain: Col-0
Tested at: 12.5 µg/mL
Setting: seed germination, single repetition
Quantity: hypocotyl length
O=C(O)C1(O)Oc2cc(Cl)ccc2N(Cc2ccccc2)C1=O (stereo not drawn): 2.02 cm and 1.99 cm and 2.01 cm and 1.96 cm
CC(C)=CCN1C(=O)C(O)(C(=O)O)Oc2cc(F)ccc21 (stereo not drawn): 2.02 cm and 1.93 cm and 2 cm and 2.01 cm and 1.97 cm
CN1C(=O)C(O)(C(=O)O)Oc2cc(F)ccc21 (stereo not drawn): 1.96 cm and 1.97 cm and 1.9 cm and 2 cm and 1.93 cm
O=C(O)C1Oc2cc(F)ccc2N(Cc2ccccc2)C1=O (stereo not drawn): 2.09 cm and 2.1 cm and 2 cm and 2.11 cm and 2.16 cm
CCCN1C(=O)C(O)(C(=O)O)Oc2cc(F)ccc21 (stereo not drawn): 1.93 cm and 1.87 cm and 1.89 cm and 1.88 cm and 1.9 cm

Block 9
Structure (SMILES): COc1cc(-c2nc3ccc(C(=O)NCCCN(C)C)cc3n2C2CCC2)cc(OC)c1OC
Observed: binding
Method: competition with immobilised ligand
Tested at: 1 µM
Quantity: remaining binding
ACVRL1 (Homo sapiens, UniProt P37023): 18%
MAP3K9 (Homo sapiens, UniProt P80192): 99%
NEK11 (Homo sapiens, UniProt Q8NG66): 91%
Tyrosine-protein kinase ABL1, phosphorylated (ABL1, Homo sapiens, UniProt P00519, Y253F): 67%
MAPK7 (Homo sapiens, UniProt Q13164): 99%
EPHA6 (Homo sapiens, UniProt Q9UF33): 96%
DSTYK (Homo sapiens, UniProt Q6XUX3): 92%
PRKG2 (Homo sapiens, UniProt Q13237): 86%
STK17A (Homo sapiens, UniProt Q9UEE5): 100%

Single results of other studies
Cc1ccc(O)c(C)c1-c1cnc2[nH]c(-c3cnc(N4CCC5(CC4)CC(N4CCN(c6ccc7c(c6F)CN(C6CCC(=O)NC6=O)C7=O)CC4)CO5)nc3)cc2c1C#N (mixture of isomers)  pCDK1 (Thr14) level (HCC1569; in-cell western, refers to: CDK1 phospho-Thr14; 0.0051 nM): 6.36 RLU and 4.72 RLU
Cc1nc(C)c(C=[N+]([O-])C(C)(C)C)nc1C  TH-positive neuron count (stereological counting; MPTP mouse model, substantia nigra; 30 mg/kg): 7810 and 6790 and 8650 and 9020 and 7720
Cc1ccc(O)c(C)c1-c1cnc2[nH]c(-c3cnc(N4CCC(CN5CCN(c6cc7c(cc6F)n(C6CCC(=O)NC6=O)c(=O)n7C)CC5)CC4)nc3)cc2c1C#N (stereo not drawn)  phospho-CDK1 (Thr14) level (HCC1569; CDK1 Thr14 phosphorylation, in-cell western; 1000.00 nM; lower = stronger inhibition): 102 a.u.
CN1CCC[C@H]1COc1nc2c(c(N3CCN(C(=O)C4CC4)[C@@H](CC#N)C3)n1)CCN(c1cccc3cccc(Cl)c13)C2  IC50 (GTPase KRas (KRAS, Homo sapiens, UniProt P01116); target engagement in cells, BRET): 1500 nM
Cc1ccc(O)c(C)c1-c1cnc2[nH]c(-c3cnc(N4CCC(CN5CCN(c6c(F)cc(NC7CCC(=O)NC7=O)cc6F)CC5)CC4)nc3)cc2c1C#N (racemic)  pCDK1 (Thr14) level (HCC1569; in-cell western, refers to: CDK1 phospho-Thr14; 0.152 nM): 5.8% and 6%
C=CC(=O)N1CCN(c2nc(OC[C@@H]3CCCN3C)nc3c2CCN(c2cccc4cccc(C)c24)C3)C[C@@H]1CC#N  normalized BRET (GTPase KRas (KRAS, Homo sapiens, UniProt P01116, G12D); binding, competitor, NanoBRET; HEK293; 741 nM): 77.6% and 74.1%
Cc1ccc(O)c(C)c1-c1cnc2[nH]c(-c3cnc(N4CCC5(CC4)CC(N4CCN(c6ccc(NC7CCC(=O)NC7=O)cc6F)CC4)CO5)nc3)cc2c1C#N (stereo not drawn)  IC50 (MDA-MB-157; CDK1 phosphorylation, refers to: CDK1 phospho-Thr14): 67 nM
COCC1CC2C(CCC3(C)C(O)CCC23)c2ccc(O)cc21 (stereo not drawn)  log2 expression ratio (A549; DNA microarray, refers to: TMEM108; concentration not given; baseline: untreated A549 cells): 0

A few entries again (block 2):
refers to: ERN1 mRNA: 2.38
refers to: PPP2R2B mRNA: -1.55
refers to: LIN9 mRNA: -1.14
refers to: LAPTM4B mRNA: -0.83
refers to: TBC1D15 mRNA: 0.806
refers to: SCIN mRNA: -2.61
refers to: RAB43 mRNA: 1.81
refers to: SPAG5 mRNA: -1.67
